Published values collected from several papers.
Each numbered part is a random draw from the data of one study; scales do not carry over between parts.

Series 1 — target: UBE2C UBC core domain (UniProt O00762); method: yeast two-hybrid; matrix: yeast; setting: mostly zero background; reference: not given; reading: higher = stronger interaction
B1: RNF149 RING domain (UniProt Q8NC42); chain EKGIDVDAENCAVCIENFKVKDIIRILPCKHIFHRICIDPWLLDHRTCPMCKLDVIKALGYW
B2: RNF43 RING domain (UniProt Q68DV7); chain SGSSCSSAPVCAICLEEFSEGQELRVISCLHEFHRNCVDPWLHQHRTCPLCMFNITEGDSFS
B3: RNF112 RING domain (UniProt Q9ULX5); chain QPMAPRELPTCSICLERLRDPISLDCGHDFCIRCFSTHRLPGCEPPCCPECRKICKQKRGLR
B4: RNF4 RING domain (UniProt P78317); chain TGLRPSGTVSCPICMDGYSEIVQNGRLIVSTECGHVFCSQCLRDSLKNANTCPTCRKKINHKRYHP
B5: RFPL2 RING domain (UniProt O75678); chain MAALFQEASSCPVCSDYLEKPMSLECGCAVCLKCINSLQKEPHGEDLLCCCSSMVSRKNKIRR
B6: ANKIB1 RING domain (UniProt Q9P2G1); chain LSPGDLDTSLCDICMCSISVFEDPVDMPCGHDFCRGCWESFLNLKIQEGEAHNIFCPAYDCFQLVPVDIIE
B7: NSMCE1 RING domain (UniProt Q8WV22); chain RETYPDAVKICNICHSLLIQGQSCETCGIRMHLPCVAKYFQSNAEPRCPHCNDYWPHEIPKV
Target sequence (chain): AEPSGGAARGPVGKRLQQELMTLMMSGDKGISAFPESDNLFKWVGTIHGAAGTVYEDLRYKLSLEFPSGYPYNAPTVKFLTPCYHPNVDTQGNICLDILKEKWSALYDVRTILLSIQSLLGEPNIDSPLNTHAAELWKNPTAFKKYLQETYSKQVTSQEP
For `QLQDEEDDSLCRICMDAVIDCVLLECGHMVTCTKCGKRMSECPICRQYVVRAVHVF (RNF34 RING domain (UniProt Q969K3))`, “lacZ reporter activity” read 0.
For `B1 (RNF149 RING domain)`, “lacZ reporter activity” read 0.
`B2 (RNF43 RING domain)`: “lacZ reporter activity” 0.
`B3 (RNF112 RING domain)`: “lacZ reporter activity” 0.
`SYEDKSNDFVCPICFDMIEEAYMTKCGHSFCYKCIHQSLEDNNRCPKCNYVVDNIDHLY (COP1 RING domain (UniProt Q8NHY2))` — result for “lacZ reporter activity”: 0.
Under “lacZ reporter activity”, `B4 (RNF4 RING domain)` is recorded as 0.
`B5 (RFPL2 RING domain)` — result for “lacZ reporter activity”: 0.
`B6 (ANKIB1 RING domain)`: “lacZ reporter activity” 0.
`B7 (NSMCE1 RING domain)` — result for “lacZ reporter activity”: 0.

Series 2 — method: RNA Bind-n-Seq; form: RNA; matrix: in vitro; concentration: 365 nM; reference: no-protein control; reading: higher = stronger binding
Target: RNA binding protein fox-1 homolog 2, RRM domain, GST-SBP tag (RBFOX2, Homo sapiens, UniProt O43251-10, residues 100-194)
Setting: natural RNA segment, single round, ends assumed
`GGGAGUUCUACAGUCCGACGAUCUAAUACUAGCUUUGAUACAUAAUCAUUUAAGUUAUAUUUGUUUAAAAUUAUAUAUUUUCUUAGUAAUAGUCAAGUUGGUGCUUAGGAAUAAACAUGUAGAAGUUUAUGCAUGGAAUUCUCGGGUGCCAA` — result for “RBNS enrichment (R)”: 7.44.
Under “RBNS enrichment (R)”, `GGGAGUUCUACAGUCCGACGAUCGAGGGGCCCUGCCGAGGCAUCAGCUGCUCUGCUCAGUUAGUUUUUAUUCCCGGGGUACCAAGCAGCUGCACAGUCGGUGCCUGGGAGGCACGUAGAGGCCCAGAGAGUCCUGGAAUUCUCGGGUGCCAA` is recorded as 3.61.
`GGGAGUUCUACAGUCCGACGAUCUGCAUGGUGACCCCACAUUGCACUGGUAAACCAUUUGAGUCCCACUCUUCAUCCUGGAAGUGGGAACUGGAGUCCCACCCACAGUGCAUUCAGAAAGCAUGCUGUGUGGGUGGAAUUCUCGGGUGCCAA`: “RBNS enrichment (R)” 5.5.
For `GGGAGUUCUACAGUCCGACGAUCUAAGUAGUUUUCAUGUUUUCAAUAUGCAGUUUUGAAAAUGAGGAUUCACCUAGACUUUUUUAGAUUUACUACUAGGAAACCUUCCUCAUAUGAAUAACCAUUUAUAUGUGUGGAAUUCUCGGGUGCCAA`, “RBNS enrichment (R)” read 0.567.
Under “RBNS enrichment (R)”, `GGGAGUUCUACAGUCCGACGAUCAUUGCUUUAUUCACACUUUUAUUGUGGCUGAAUUUUUGUGCCUAUCUAUAAAACACACUUUCAAAUUAUUUGAAUUACCAAGACGUCUGCUUUUGUGACAGUCAGAAAACUGGAAUUCUCGGGUGCCAA` is recorded as 0.402.
`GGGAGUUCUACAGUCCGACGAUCGCACACGUUAGGAGGAGUCCUCAUCAGCUGUUCUCAUUGCCAGUGAGAUAUAUUCAGUAUUGUAGAUACUACACUAAUUUCCAACAUAAGAGGCAGGAAGAGUUUUGAUUUGGAAUUCUCGGGUGCCAA`: “RBNS enrichment (R)” 0.447.
`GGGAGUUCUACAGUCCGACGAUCUUGUUUGUUUAUUAGAUGAAUUAUCCUAUUUCAGUACUUCAGCAAGAGAGAACCUAACUGUAUCUUGAGGUGGUAGUAAAACACAGAGGGCCAGUAACGGGUCGUAAUGAUGGAAUUCUCGGGUGCCAA` — result for “RBNS enrichment (R)”: 0.494.
For `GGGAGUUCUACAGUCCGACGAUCGCCCACACUUACACCUCAGAAACUUAGCAUGCAUCCUGAAAUGAAGCCUUUCAUAGACUCAUAGGGAAUAAAGCCAAAUGUAGCUCUUACUCUUUAUAAAAUAAAGUGUUUGGAAUUCUCGGGUGCCAA`, “RBNS enrichment (R)” read 3.45.

Series 3 — method: universal PBM; form: double-stranded DNA, one strand shown; matrix: in vitro; concentration: 600 nM; reading: higher = stronger binding
Target: Sal-like protein 4, full length isoform A (SALL4, Homo sapiens, UniProt Q9UJQ4, residues 1-1053)
Chain of UniProt Q9UJQ4 (whole entry, looked up): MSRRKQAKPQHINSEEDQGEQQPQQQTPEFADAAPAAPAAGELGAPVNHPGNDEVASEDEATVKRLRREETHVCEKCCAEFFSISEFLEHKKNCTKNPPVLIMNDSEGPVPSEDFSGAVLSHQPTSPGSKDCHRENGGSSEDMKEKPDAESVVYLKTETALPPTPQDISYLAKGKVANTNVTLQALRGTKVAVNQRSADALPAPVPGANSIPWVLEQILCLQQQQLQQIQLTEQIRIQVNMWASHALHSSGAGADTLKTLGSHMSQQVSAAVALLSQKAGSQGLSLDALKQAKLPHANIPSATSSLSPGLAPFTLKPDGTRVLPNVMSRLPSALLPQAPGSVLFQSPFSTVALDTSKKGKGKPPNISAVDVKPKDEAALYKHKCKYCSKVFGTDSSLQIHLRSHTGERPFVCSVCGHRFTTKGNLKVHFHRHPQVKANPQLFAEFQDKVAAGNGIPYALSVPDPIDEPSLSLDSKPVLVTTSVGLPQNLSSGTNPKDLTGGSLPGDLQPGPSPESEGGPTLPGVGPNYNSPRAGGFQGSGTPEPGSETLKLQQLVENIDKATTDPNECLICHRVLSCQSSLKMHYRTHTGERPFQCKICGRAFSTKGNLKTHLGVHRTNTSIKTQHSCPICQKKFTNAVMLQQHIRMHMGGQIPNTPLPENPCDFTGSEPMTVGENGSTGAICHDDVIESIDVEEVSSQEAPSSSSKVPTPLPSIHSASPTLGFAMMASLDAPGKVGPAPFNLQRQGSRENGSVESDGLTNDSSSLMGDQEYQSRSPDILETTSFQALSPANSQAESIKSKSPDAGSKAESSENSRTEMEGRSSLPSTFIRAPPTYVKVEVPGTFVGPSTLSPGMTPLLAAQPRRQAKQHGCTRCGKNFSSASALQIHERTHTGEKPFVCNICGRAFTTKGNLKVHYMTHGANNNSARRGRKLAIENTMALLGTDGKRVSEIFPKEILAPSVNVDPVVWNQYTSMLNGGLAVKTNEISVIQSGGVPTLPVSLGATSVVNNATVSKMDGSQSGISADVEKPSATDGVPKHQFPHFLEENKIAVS
Setting: 8-mer, flanks averaged, mean of replicates
For `AGTACAAG`, the E-score was 0.0193.
`CATAAACA` gave an E-score of 0.341.
`GCCGTAGC` has an E-score of -0.24.
The E-score of `AACCGGAG` is reported as -0.207.
With `CTAAAGGA` the E-score was 0.0389.
The E-score of `ACCCAGTC` is reported as -0.192.
`GGACAATA` has an E-score of 0.212.
The E-score of `CCCTTAGC` is reported as -0.202.
For `ATGCGTTA`, the E-score was 0.129.
`ACGGCCAC` gave an E-score of -0.159.
`ATCAATGG` gave an E-score of 0.0589.
For `ATCCGGAA`, the E-score was 0.0529.
`AGAATAAC` has an E-score of 0.189.
With `CCAGTACC` the E-score was -0.262.
The E-score of `GATACGGC` is reported as -0.244.
`GACCAGTA` has an E-score of -0.236.
With `ATACGATC` the E-score was 0.0231.
The E-score of `ATTCACAC` is reported as 0.195.
With `CATGGCAC` the E-score was -0.122.
`GGCGTGGA` has an E-score of -0.263.
`AAAACGGG` has an E-score of -0.0735.
The E-score of `CACAGTTC` is reported as -0.123.

Series 4 — method: RNA Bind-n-Seq; form: RNA; matrix: in vitro; concentration: 100 nM; reference: input RNA pool; reading: higher = stronger binding
Target: RING finger protein unkempt homolog, zinc fingers 1-6, SBP tag (UNK, Homo sapiens, UniProt Q9C0B0, residues 30-357)
Chain of UniProt Q9C0B0 (30-357, looked up): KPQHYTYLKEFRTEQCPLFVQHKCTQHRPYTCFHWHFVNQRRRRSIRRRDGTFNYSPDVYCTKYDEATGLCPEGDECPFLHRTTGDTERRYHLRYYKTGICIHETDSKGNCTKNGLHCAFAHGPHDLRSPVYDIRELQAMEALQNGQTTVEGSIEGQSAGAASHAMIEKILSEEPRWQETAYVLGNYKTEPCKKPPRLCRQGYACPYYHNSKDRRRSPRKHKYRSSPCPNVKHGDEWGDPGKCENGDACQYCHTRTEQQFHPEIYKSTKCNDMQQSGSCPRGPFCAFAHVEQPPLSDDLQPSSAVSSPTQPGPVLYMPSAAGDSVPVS
Setting: RNA with constant flanks, vertebrate orthologous sites, ends assumed
`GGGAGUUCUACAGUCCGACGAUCCAUAAUCACUCUAUUGUAAUCUGAAAAAAGUGUAACAUUGUGUAGCCUUUUUGUAUAAAAUAGACAAAUAGAAAUGGUCCAAUUAGUUUCCUUUUUAAUAUGCUUAAAAUAAGCAGGUGACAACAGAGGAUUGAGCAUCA` gave a bound/input enrichment of 1.36 ratio.
`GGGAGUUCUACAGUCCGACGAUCCCUCUGAACCCCAUUUCUUCUGUUUCAUAGUGUAGAAGUAUUCUUUUUCAAUUGUAUUAUUAGUGGACUUGUUUUAAUUUUAGGGAAACUUUCAGUACAGAUACUGUGAGCUUACAUGGACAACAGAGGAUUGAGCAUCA` has a bound/input enrichment of 1.77 ratio.
With `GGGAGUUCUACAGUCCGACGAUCGACCUCCUGAACUUCUGGCUUUCAAGCUGUGGCUCUUUUAGAUACUGGUUUUAUUUUCUUUACAAUUUUCCCGCCUUUCUUCCCCUGUUCCCAAGGUUUGACUCAUGGAUCUUACUCUUCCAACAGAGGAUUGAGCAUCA` the bound/input enrichment was 3.8 ratio.
The bound/input enrichment of `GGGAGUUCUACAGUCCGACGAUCUUUGUGUGUACAGGGUAUUCUCUGUACUAGUUUGUUGUGGUUAUAAAACAUUUAGCAAAACAGCCUACAUUUGUAUUUAUUUUCUGUUCCAUACUUCUGUGCCUCAUGUGUUUUCUUUUACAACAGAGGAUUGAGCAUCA` is reported as 0.739 ratio.
The bound/input enrichment of `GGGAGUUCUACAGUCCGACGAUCAUGGGAAAUACUCUGGGGAGUGGCUGGACACUUAGCGUUGUUUGAUUUAUGACCUUGACAGUAGAUAGGCUUGUGGGGGUUUUUGUUUUUGUUUUUUAAUUUAAUGAUAUUAAAACUUAACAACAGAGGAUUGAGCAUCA` is reported as 0.981 ratio.
For `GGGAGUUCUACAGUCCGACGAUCUAGGUCUGGGGUAGAAGGGAGGGAAGGGGCAGGAUACGUGAAAUCUCUAGGGUGUAUGGGGAGGUAGGGGGCACAGUUAGUUCUAAGUGGGCUUUUAUGUUACCUUUUGGGACAACAACACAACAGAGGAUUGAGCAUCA`, the bound/input enrichment was 1.78 ratio.
`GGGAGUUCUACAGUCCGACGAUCGAAGUUCCCCAUUGUCACUGAGAACCACCAAAUCUGACUUUUACAUUUGGUCUCAGAAUUUAGGUUCCUGCCCUGGUUUUUUUUUUUUUUUUUCUUUAAACCGUUUCCAAAAGUUCUUAACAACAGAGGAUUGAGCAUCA` has a bound/input enrichment of 0.888 ratio.
The bound/input enrichment of `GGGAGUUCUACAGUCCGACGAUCCCCCAGCACUUUGAUAAAGACUGUGGAUUGGUUGCUGGUGUUUUCCUUGUUCUUUUUAAUUAGUUUCAUUAUGUAUGCUACCAUCCGCACUGAGAGUAUUCGGUGGCUGAUUCCAGGACACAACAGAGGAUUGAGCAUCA` is reported as 0.648 ratio.

Repeated from above (series 3):
For `ATCCGGAA`, the E-score was 0.0529.
`AGAATAAC` has an E-score of 0.189.
With `CCAGTACC` the E-score was -0.262.
The E-score of `GATACGGC` is reported as -0.244.
`GACCAGTA` has an E-score of -0.236.
With `ATACGATC` the E-score was 0.0231.
The E-score of `ATTCACAC` is reported as 0.195.
